Results from different studies.
Lines come from different studies, so protocols differ. ± marks the error that the study gave.

SMILES | organism | assay | system | setting | IC50 [µM]
CC(=O)[O-].CN(C)C=O.F[P-](F)(F)(F)(F)F.[Co+2].c1ccc(CN2CCN3CCCN(CC2)CCN(Cc2ccccc2)CC3)cc1 | Leishmania donovani | – | THP-1-derived macrophages, intracellular amastigotes | – | > 10
N=C(N)NCCC[C@H](NC(=O)[C@@H]1CSSC[C@H](NC(=O)[C@@H](N)CCCNC(=N)N)C(=O)N[C@@H](CCCNC(=N)N)C(=O)N[C@@H](Cc2ccc3ccccc3c2)C(=O)N[C@@H](CCCNC(=N)N)C(=O)N[C@@H](C2CCCCC2)C(=O)N2CCC[C@@H]2C(=O)N[C@@H](CC2CCCCC2)C(=O)N[C@@H](Cc2c[nH]cn2)C(=O)N[C@@H](CCCNC(=N)N)C(=O)N[C@@H](Cc2ccc(-c3ccccc3)cc2)C(=O)N[C@@H](CCCNC(=N)N)C(=O)N1)C(N)=O | hepatitis C virus | viral replication, Renilla luciferase reporter | Huh7.5 | 48 h | 0.031
Cc1cccc2c1NC(=O)C2=Cc1ccc(-c2cccc(C(=O)N3CCCN(C)CC3)c2)o1 (mixture of isomers) | Trichuris muris | adult worm motility | – | 48 h | 14.7
CC(C)[C@@H]1NC(=O)[C@H](CCCNC(=N)N)NC(=O)[C@H](Cc2ccccc2)NC(=O)[C@H](CO)NC(=O)[C@@H](NC(=O)CCCCCNC(=O)CCCCCNC(=O)[C@H](CCCNC(=N)N)NC(=O)CCCCCNC(=O)[C@H](CCCNC(=N)N)NC(=O)CCCCCNC(=O)[C@H](CCCNC(=N)N)NC(=O)CCCCCNC(=O)[C@H](CCCNC(=N)N)NC(=O)CCCCCNC(=O)[C@H](CCCNC(=N)N)NC(=O)CCCCCNC(=O)[C@H](CCCNC(=N)N)NC(=O)CCCCCNC(=O)[C@@H](N)CCCNC(=N)N)CSSC[C@@H](C(N)=O)NC(=O)[C@@H]2CCCN2C(=O)[C@H](Cc2ccc(O)cc2)NC(=O)[C@H](CCC(=O)O)NC(=O)[C@H](Cc2c[nH]cn2)NC(=O)[C@H](CC2CCCCC2)NC(=O)[C@H]2CCCN2C1=O | hepatitis C virus | viral replication, Renilla luciferase reporter | Huh7.5 | 48 h | 0.000452
[Cl-].[Cl-].[Ni+2].c1ccc(CN2CCNCCN(Cc3ccccc3)CCNCC2)cc1 | Leishmania donovani | parasite growth, resazurin | – | 72 h, promastigote | 18.6
N=C(N)NCCC[C@@H]1NC(=O)[C@H](Cc2ccc(O)cc2)NC(=O)[C@H](CCCNC(=N)N)NC(=O)[C@H](Cc2c[nH]cn2)NC(=O)[C@H](CC2CCCCC2)NC(=O)[C@H]2CCCN2C(=O)[C@H](C2CCCCC2)NC(=O)[C@H](CCCNC(=N)N)NC(=O)[C@H](Cc2ccc3ccccc3c2)NC(=O)[C@H](CCCNC(=N)N)NC(=O)[C@@H](N)CSSC[C@@H](C(N)=O)NC1=O | hepatitis C virus | viral replication, Renilla luciferase reporter | Huh7.5 | 48 h | 4.8e-05
CC#N.[Cl][Mn-2]([Cl])([Cl])[Cl].[Mn+2].c1ccc(CN2CCCN3CCCN(CCCN(Cc4ccccc4)CC3)CC2)cc1 | Leishmania donovani | – | THP-1-derived macrophages, intracellular amastigotes | – | 1.89
N=C(N)NCCC[C@H](NC(=O)[C@H](CCCNC(=N)N)NC(=O)[C@H](CCCNC(=N)N)NC(=O)[C@H](CCC(N)=O)NC(=O)[C@H](CCCNC(=N)N)NC(=O)[C@H](CCCNC(=N)N)NC(=O)[C@H](CCCCN)NC(=O)[C@H](CCCCN)NC(=O)[C@H](CCCNC(=N)N)NC(=O)CNC(=O)[C@H](Cc1ccc(O)cc1)NC(=O)CNC(=O)CNC(=O)[C@H](CCCCN)NC(=O)[C@H](CCCNC(=N)N)NC(=O)[C@H](CCC(N)=O)NC(=O)[C@H](CS)NC(=O)[C@H](CCC(N)=O)NC(=O)CNC(=O)[C@H](CC(N)=O)NC(=O)[C@@H](N)CCCNC(=N)N)C(N)=O | Leishmania amazonensis | parasite growth | – | 24 h, promastigote | ~23
CC(=O)[O-].F[P-](F)(F)(F)(F)F.[Ni+2].c1ccc(CN2CCN3CCN(CC2)CCN(Cc2ccccc2)CC3)cc1 | Leishmania donovani | parasite growth, resazurin | – | 72 h, promastigote | 11
O=C(C1CCN(c2nnnn2-c2ccccc2)CC1)N1CCCc2ccccc21 | Plasmodium falciparum | [3H]hypoxanthine incorporation | Cam3.I | 72 h | 0.79
CC[C@H](C)[C@H](NC(=O)CNC(=O)[C@H](CO)NC(=O)[C@H](CC(C)C)NC(=O)[C@@H](N)Cc1ccccc1)C(=O)N[C@H](C(=O)NCC(=O)N[C@@H](CCSC)C(=O)N[C@@H](CC(C)C)C(=O)NCC(=O)N[C@@H](CCCCN)C(=O)N[C@@H](CC(C)C)C(=O)N[C@@H](Cc1ccccc1)C(N)=O)C(C)C | Leishmania mexicana | trypan blue count | promastigotes | – | 6.3 ± 0.85
CC=C1NC(=O)[C@H](Cc2ccccc2)NC(=O)[C@H](C(C)C)NC(=O)[C@H](Cc2ccccc2)NC(=O)[C@H](CCC(N)=O)NC(=O)[C@H](Cc2c[nH]c3ccccc23)NC(=O)C2CSC[C@@H](C(=O)N[C@@H](CO)C(=O)O)NC(=O)[C@H](CSCC3NC(=O)[C@H]([C@@H](C)CC)NC(=O)C(NC(=O)[C@H](Cc4c[nH]cn4)NC(=O)[C@@H](NC(=O)[C@@H](NC(=O)CNC(=O)[C@H](CO)NC(=O)CNC(=O)CNC(=O)[C@@H](N)CCCCN)C(C)C)[C@@H](C)CC)C(C)SC[C@H](NC(=O)[C@H](CCC(=O)O)NC(=O)[C@H](Cc4c[nH]cn4)NC3=O)C(=O)N[C@@H](CC(N)=O)C(=O)N[C@@H](CCSC)C(=O)N[C@@H](CC(N)=O)C(=O)N2)NC1=O (stereo partly shown) | Lactococcus lactis | cell growth | HP | – | 0.785 ± 0.019
COc1cc2c(=O)c(C(=O)NCCNCCO)cn(Cc3ccccc3)c2cc1OCc1cccc(Br)c1 | Leishmania donovani | – | Bob promastigotes | 120 h | > 20

A few entries again:
SMILES | organism | assay | system | setting | IC50 [µM]
CC#N.[Cl][Mn-2]([Cl])([Cl])[Cl].[Mn+2].c1ccc(CN2CCCN3CCCN(CCCN(Cc4ccccc4)CC3)CC2)cc1 | Leishmania donovani | – | THP-1-derived macrophages, intracellular amastigotes | – | 1.89
